Results gathered from unrelated publications.
Numbered parts are unrelated; each lists some results of a single study. Several values in a cell are separate wells, animals, samples, runs or records.
Chain of UniProt O43318 (whole entry, looked up): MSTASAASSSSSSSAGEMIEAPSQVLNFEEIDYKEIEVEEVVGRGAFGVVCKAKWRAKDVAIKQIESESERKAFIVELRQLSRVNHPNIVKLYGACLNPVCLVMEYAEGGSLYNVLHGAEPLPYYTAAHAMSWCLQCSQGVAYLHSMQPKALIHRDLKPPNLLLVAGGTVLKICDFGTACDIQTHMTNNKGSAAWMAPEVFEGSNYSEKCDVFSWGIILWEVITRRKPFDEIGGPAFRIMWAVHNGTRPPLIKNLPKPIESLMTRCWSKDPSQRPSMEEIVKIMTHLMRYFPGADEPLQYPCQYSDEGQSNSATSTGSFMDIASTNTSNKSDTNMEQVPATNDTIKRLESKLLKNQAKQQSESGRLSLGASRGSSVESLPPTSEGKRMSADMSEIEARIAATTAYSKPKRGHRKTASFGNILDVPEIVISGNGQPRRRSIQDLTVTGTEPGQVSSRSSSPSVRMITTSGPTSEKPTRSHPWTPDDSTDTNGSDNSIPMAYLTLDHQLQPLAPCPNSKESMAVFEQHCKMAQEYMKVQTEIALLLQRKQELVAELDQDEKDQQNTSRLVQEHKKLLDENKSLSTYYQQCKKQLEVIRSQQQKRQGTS
Chain of UniProt Q99755 (whole entry, looked up): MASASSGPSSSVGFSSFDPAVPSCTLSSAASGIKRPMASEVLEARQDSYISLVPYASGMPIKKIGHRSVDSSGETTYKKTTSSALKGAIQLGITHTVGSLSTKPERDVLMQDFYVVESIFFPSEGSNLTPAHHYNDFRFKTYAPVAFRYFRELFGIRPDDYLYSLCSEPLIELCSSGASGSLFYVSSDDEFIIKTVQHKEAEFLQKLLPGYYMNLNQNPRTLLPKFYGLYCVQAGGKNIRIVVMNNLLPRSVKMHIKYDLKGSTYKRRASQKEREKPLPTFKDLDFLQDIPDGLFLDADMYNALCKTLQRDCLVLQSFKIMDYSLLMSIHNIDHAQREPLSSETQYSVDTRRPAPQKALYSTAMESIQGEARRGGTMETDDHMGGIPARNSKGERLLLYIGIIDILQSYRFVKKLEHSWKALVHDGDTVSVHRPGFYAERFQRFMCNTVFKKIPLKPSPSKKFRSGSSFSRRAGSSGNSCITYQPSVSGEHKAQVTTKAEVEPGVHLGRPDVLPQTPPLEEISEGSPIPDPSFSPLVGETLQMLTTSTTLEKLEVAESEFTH
Chain of UniProt Q8NFD2 (whole entry, looked up): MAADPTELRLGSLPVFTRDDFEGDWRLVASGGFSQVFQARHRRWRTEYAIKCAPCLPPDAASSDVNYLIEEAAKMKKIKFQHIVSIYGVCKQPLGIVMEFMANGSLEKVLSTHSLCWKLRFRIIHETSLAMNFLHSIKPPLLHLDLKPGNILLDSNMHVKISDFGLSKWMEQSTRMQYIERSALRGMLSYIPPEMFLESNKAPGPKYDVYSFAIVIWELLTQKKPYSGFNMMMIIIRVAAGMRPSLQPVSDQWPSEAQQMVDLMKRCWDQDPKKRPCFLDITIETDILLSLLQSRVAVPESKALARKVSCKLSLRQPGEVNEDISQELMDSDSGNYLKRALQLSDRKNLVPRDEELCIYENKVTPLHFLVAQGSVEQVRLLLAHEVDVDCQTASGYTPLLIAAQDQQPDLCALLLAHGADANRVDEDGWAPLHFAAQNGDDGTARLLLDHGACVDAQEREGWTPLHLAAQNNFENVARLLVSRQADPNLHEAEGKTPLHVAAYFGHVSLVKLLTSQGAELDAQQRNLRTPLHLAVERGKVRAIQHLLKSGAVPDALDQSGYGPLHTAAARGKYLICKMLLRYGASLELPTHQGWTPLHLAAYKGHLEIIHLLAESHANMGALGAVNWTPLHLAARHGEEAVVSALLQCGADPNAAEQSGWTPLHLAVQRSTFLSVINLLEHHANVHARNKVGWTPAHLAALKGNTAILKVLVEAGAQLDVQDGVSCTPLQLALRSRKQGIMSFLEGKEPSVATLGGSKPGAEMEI

Series 1
Structure (SMILES): CC(C)(C(=O)O)[C@H](NC(=O)Cc1cccc(I)c1)c1ccc2oc(=O)[nH]c2c1
Technique: Incucyte 3D growth
Tested at: 30 µM
Direction: higher = more growth
| cell line | time | spheroid area |
| --- | --- | --- |
| NCI-H1437 | 174 h | 5.29e+07 a.u. and 5.93e+07 a.u. and 3.45e+07 a.u. and 3.18e+07 a.u. and 3.96e+07 a.u. and 3.93e+07 a.u. |
| NCI-H358 | 6 h | 3.04e+06 a.u. and 3.58e+06 a.u. and 3.5e+06 a.u. and 3.78e+06 a.u. and 3.22e+06 a.u. and 3.53e+06 a.u. |
| PC-9 | 42 h | 3.99e+08 a.u. and 3.71e+08 a.u. and 3.79e+08 a.u. and 3.84e+08 a.u. and 3.6e+08 a.u. |

Series 2
Cell line: mouse MPNST tumor cells
Technique: high-content immunofluorescence imaging
Refers to: nuclear SOX9
Tested at: 10 µM
Time: 12 h
Notes: mean of 2 replicates
Baseline: DMSO control
Direction: higher = more nuclear SOX9
| SMILES | nuclear SOX9 intensity |
| --- | --- |
| CN1CC(=O)N=C1NC(=O)Nc1cccc(Cl)c1 | 93.8 % of DMSO |
| CCC(CC)(NC(=O)C(C)C)C(=O)N[C@@H](CCCN=C(N)N)C(=O)NC1(C(=O)NC(c2ccc(F)cc2)c2ccc(F)cc2)CCCC1 | 96.1 % of DMSO |
| CCCCOC(=O)c1ccc(O)cc1 | 98.5 % of DMSO |
| COc1cc2c(cc1OC)CN(C(=O)C=Cc1c(-c3ccccc3)n(C)c3ncccc13)CC2 | 182 % of DMSO |

Series 3
Compound: COc1cccc(CNC(=O)c2nc3scc(COCc4ccc(C(=O)O)cc4)c3c(=O)[nH]2)c1
Observed: cell-free assay
Technique: competition with immobilised ligand
Tested at: 1 µM
| target | remaining binding |
| --- | --- |
| Phosphatidylinositol 4-phosphate 5-kinase type-1 alpha (PIP5K1A, Homo sapiens, UniProt Q99755) | 100% |
| Ankyrin repeat and protein kinase domain-containing protein 1 (ANKK1, Homo sapiens, UniProt Q8NFD2) | 70.9% |
| Mitogen-activated protein kinase kinase kinase 7 (MAP3K7, Homo sapiens, UniProt O43318) | 60.2% |

Series 4
Species: human
Matrix: microsomes or S9
Tested at: 2 µM
Time: 0.5 h
| SMILES | remaining compound |
| --- | --- |
| Cc1cccc(/N=c2/ncc3c([nH]2)CC(c2ccc(F)cc2)CC3=O)c1 (stereo not drawn) | 9.05% |
| c1csc(COc2ccc(CNn3cnnc3)cc2)c1 | 84.8% |
| Cc1nc(NC(C)Cc2ccccc2)c(C#N)c2c1COC(C)(C)C2 (stereo not drawn) | 2.54% |

Series 5
Target: Tyrosine-protein kinase SYK (SYK, Homo sapiens, UniProt P43405)
Observed: enzyme activity
Action: inhibitor
Tested at: 0.5 µM
Baseline: control
| Structure (SMILES) | remaining activity [%] |
| --- | --- |
| Cc1cccc(-c2[nH]c(C(C)(C)C)nc2-c2ccc3c(c2)OCO3)n1 | 87 |
| Oc1ccc(-c2nc(-c3ccncc3)c(-c3ccc(F)cc3)[nH]2)cc1 | 101 |
| Cc1nc(-c2ccccc2)c(-c2ccncc2)o1 | 99.1 |
| COc1ccc(OC)c2c(=S)c3ccccc3[nH]c12 | 100 |
| COc1ccc(CNC(=O)Nc2ncc([N+](=O)[O-])s2)cc1 | 98.6 |
| O=C1NC(=O)C(c2cn(CCCO)c3ncccc23)=C1c1cnccn1 | 60 |
| Cc1ccc(Nc2nccc(N(C)c3ccc4c(C)n(C)nc4c3)n2)cc1S(N)(=O)=O | 101 |
| O=C(CCCc1ccc(-c2ccccc2F)cc1)Nc1ccc(O)cc1 | 101 |
| Nc1ncnc2n[nH]c(Nc3ccc(F)cc3)c12 | 97.4 |
| CO[C@H]1C[C@@H]2CC[C@@H](C)[C@@](O)(O2)C(=O)C(=O)N2CCCC[C@H]2C(=O)O[C@H]([C@H](C)C[C@@H]2CC[C@@H](O)[C@H](OC)C2)CC(=O)[C@H](C)/C=C(\C)[C@@H](O)[C@@H](OC)C(=O)[C@H](C)C[C@H](C)/C=C/C=C/C=C/1C | 97.1 |
| CNC(=O)c1cc(Oc2ccc(NC(=O)Nc3ccc(Cl)c(C(F)(F)F)c3)cc2)ccn1 | 101 |
| CN(C)c1ccc(C=C2C(=O)Nc3ccccc32)cc1 | 90.4 |
| Nc1[nH]nc2nc3ccccc3nc12 | 100 |
| COc1cc2ncnc(Nc3ccc(Oc4ccccc4)cc3)c2cc1OC | 98.6 |
| CCOC(=O)c1c(C)[nH]c(/C=C2\C(=O)Nc3ccccc32)c1C | 89.3 |
| O=c1c2ccccc2[nH]c(=S)n1CCN1CCC(=C(c2ccc(F)cc2)c2ccc(F)cc2)CC1 | 93.2 |

Series 6
Cell line: HaCaT
Tested at: 100 µM
Time: 36 h
| SMILES | viability [%] |
| --- | --- |
| COC(=O)Nc1nc2ccc(C(=O)c3ccccc3)cc2[nH]1 | 14.7 |
| CCN[C@@H]1C[C@H](N)[C@@H](O[C@H]2OC(CN)=CC[C@H]2N)[C@H](O)[C@H]1O[C@H]1OC[C@](C)(O)[C@H](NC)[C@H]1O | 93.8 |
| CCOc1ccc2ccccc2c1C(=O)N[C@@H]1C(=O)N2[C@@H]1SC(C)(C)[C@@H]2C(=O)O | 88.8 |
| c1cnc2cc3c(cc2n1)[C@@H]1CNC[C@H]3C1 | 97 |
